Results from different studies.
Protocols differ between the studies behind these lines. Values joined by “and” are separate records of one study, mostly repeats; a detail may differ. ± marks the error that the study gave.

| Compound | test | test system | setting | scale | measurement | result |
| --- | --- | --- | --- | --- | --- | --- |
| N#Cc1ccc2c(c1)[C@H]1CCCN(C(=O)c3ccc4[nH]cnc4c3)[C@H]1C2 | meal tolerance test | human, Phase II trial | 240 mg once daily, day 28, AUC0-2 h, adjusted mean | relative to: baseline | glucose AUC change | 1.07 mmol/h/L |
| CCCCC1(CCCC)CN(c2ccccc2)c2cc(SC)c(OCC(=O)N[C@@H](C(=O)NCC(=O)O)c3ccccc3)cc2S(=O)(=O)C1 | item: 7α-hydroxy-4-cholesten-3-one | human, plasma | 20 mg once daily, day 13 |  | plasma C4 | 69.1 ng/mL |
| COc1ccc(-c2cncc(N[C@@H](C)c3cccc(NC(=O)c4cncc(C)c4)c3)n2)cc1OC | item: rno-miR-24-3p | rat SU5416/hypoxia model, lung | dose not given | relative to: SU5416/hypoxia vehicle | fold change | 0.732 |
| Oc1nc2nonc2cc1Nc1c(F)c(F)c(F)c(F)c1F |  | obese C57BL/6J mice, Western diet 19 weeks, subcutaneous, retroperitoneal fat | oral gavage, 130 mg/kg/day, end of treatment | relative to: vehicle | fat pad weight | no effect |
| C[C@H](Oc1ccc(Br)cc1-c1ccon1)C(=O)O | first response latency | human, tibialis anterior muscle | 1200 mg, 30 Hz, single ascending dose |  | difference from placebo | 2.56% |
| C[C@@H](O)CCOC(=O)C[C@@H](C)O | item: Pro | human, plasma | 60 min, log2-transformed values |  | metabolite level | 7.68 ± 0.41 µmol/L |
| O=C(COc1ccc(Cl)cc1)NC12CC(c3nnc([C@H]4C[C@@H](OC(F)(F)F)C4)o3)(C1)C2 |  | healthy human, PBMC | oral, 45 mg single dose, day 2, 24 h post-dose, median, with: sodium arsenite ex vivo | relative to: baseline | CHAC1 mRNA change | -47% |
| O=C(O)CNC(=O)Cc1ccccc1 |  | ventricular cardiomyocytes, C57BL/6 mouse | dose not given, 0.688 s |  | sarcomere length | 1.72 µm |
| O=C1c2ccncc2C(=O)c2c1[nH]c1ccccc21 |  | female monocrotaline PAH rat | dose not given | relative to: vehicle | TAPSE | increased |
| CC(C)(C)OC[C@@H]1C(=O)NCCN1C(=O)C[C@H](N)Cc1cc(F)c(F)cc1F |  | healthy Korean men, blood | oral, dose not given, 2 h, steady state OGTT |  | glucose AUEC | 345 ± 40.2 mg·h/dL |
| NCC(=O)Nc1cncc(-c2nn3c(=O)cc(N4CCNCC4)nc3s2)c1 | ADP-induced platelet aggregation, light transmission aggregometry | human, stable CAD on aspirin, ex vivo platelets | subcutaneous, 0.05 mg/kg, 60 min post-dose, mean value, with: ADP 20 µM |  | inhibition | 48.6% |
| CCN(Cc1nc2c(N)nc3cc(-c4cc[nH]n4)ccc3c2[nH]1)C(C)=O | immunohistochemistry, item: CD163+ TAMs | patients with advanced solid tumours, non-injected tumour lesions | dose not given, monotherapy | relative to: baseline | mean fold change | 1.1 |
| CC(C)NCC(O)c1ccc(O)c(O)c1 (stereo not drawn) |  | ventricular cardiomyocytes, C57BL/6 mouse | dose not given, 0.224 s |  | sarcomere length | 1.51 µm |
| Cc1c(NC(=O)c2cccnc2)c(=O)n(-c2ccccc2)n1C | histology | Dmd C3333Y mice, tibialis anterior | dose not given |  | necrotic area | 3.5% and 5.9% and 4.3% and 5.6% and 6.1% |
| COc1ccccc1[C@H](Cn1c(=O)n(C(C)(C)C(=O)O)c(=O)c2c(C)c(-c3ncco3)sc21)OC1CCOCC1 | [1-13C]acetate infusion, isotopomer analysis | overweight or obese healthy men, plasma VLDL-TG palmitate | oral, 200 mg single dose, 10 h post-dose, with: oral fructose |  | fractional hepatic DNL | 8.63 % new palmitate |
| CC1(C)CCC(CN2CCN(c3ccc(C(=O)NS(=O)(=O)c4ccc(NCC5CCOCC5)c([N+](=O)[O-])c4)c(Oc4cnc5[nH]ccc5c4)c3)CC2)=C(c2ccc(Cl)cc2)C1 | cell killing | canine lymph node CD3+ T cells, dog 30 | 24 h |  | EC50 | 2.4 nM |
| c1ccc(-c2n[nH]cc2-c2ccnc3ccccc23)nc1 | kinase binding, competitor, MIB/MS competition, item: TPK2 | Candida albicans cell lysate | 1 µM | relative to: DMSO | log2 fold change | 1.46 |
| Nc1nc2cc(-c3ccc4ncc(C(=O)N5CCOCC5)n4c3)ccc2o1 | RECIST v1.1 | advanced solid tumour patients | dose not given, Mon-Wed-Fri dosing |  | clinical benefit rate | 32% |
| CC(C)[C@@H](CS(=O)(=O)C(C)C)N1C(=O)[C@@](C)(CC(=O)O)C[C@H](c2cccc(Cl)c2)[C@H]1c1ccc(Cl)cc1 |  | mouse, subcutaneous PDX | 25 mg/kg, dosed until moribund |  | median time to endpoint | 70 days |
| CCO[C@H]1CCN(Cc2c(OC)cc(C)c3[nH]ccc23)[C@H](c2ccc(C(=O)O)cc2)C1 |  | PNH patients, blood | oral, 25 mg then 100 mg, week 8, mean absolute change | relative to: baseline | PNH RBC clone size | 43.9% |
| O=P(O)(O)C(Cl)(Cl)P(=O)(O)O |  | Mus musculus, subarachnoid haemorrhage, meninges | concentration not given, day 7 | relative to: total area | Iba1-positive area | 2.78% and 3.01% and 2.79% |
| Cn1cc(Nc2nccc(-c3ccc4c(c3)CN(C3COC3)CC[C@H]4NC(=O)c3cn(C(C)(C)C)nn3)n2)cn1 | item: PTEN signalling | mouse splenic B cells, mouse | 30 mg/kg, IgD-activated B cells in vivo | relative to: vehicle, direction not given | pathway activation z-score | -1.07 |
| CN(C)C(=O)Oc1cccc([N+](C)(C)C)c1 | neuromuscular block reversal | rat | dose not given, 10.5 (unit not given), with: cisatracurium | relative to: T1 twitch | train-of-four ratio | 81.1 |

| Compound | test | test system | setting | scale | measurement | result |
| --- | --- | --- | --- | --- | --- | --- |
| C=CCn1c(=O)c2cnc(Nc3ccc(N4CCN(C)CC4)cc3)nc2n1-c1ccc2c(n1)[C@@](O)(CC)CC2 |  | Rh30 xenograft, BALB/c nude mice | oral, 80 mg/kg once daily x 21, day 18 |  | tumour volume difference | 1300 ± 54.3 mm3 |
| O=C(O)CCC(=O)O.[2H]C([2H])([2H])Oc1cc(C)c2[nH]ccc2c1CN1CC[C@@H](C2CC2)C[C@H]1c1ccc(C(=O)O)cc1 | alternative complement pathway activity, Wieslab ELISA | healthy humans, nearly all subjects, serum | 200 mg once daily, trough, multiple doses |  | inhibition | > 80% |
| Cc1sc2c(c1C)C(c1ccc(Cl)cc1)=N[C@@H](CC(=O)NCCCCCCCCNC(=O)COc1cccc3c1C(=O)N(C1CCC(=O)NC1=O)C3=O)c1nnc(C)n1-2 (stereo partly drawn) | flow cytometry | 4T1 tumour-bearing mice, spleen | dose not given |  | CD8+ T cells | 6.8% and 10.5% |
| C[C@@H]1CCC[C@H](n2cnc(-c3cc(Cl)ccc3-n3cc(Cl)nn3)cc2=O)c2cc(ccn2)-c2c(cnn2C(F)F)NC1=O |  | cynomolgus monkey plasma | IC2× aPTT, STA-PTT reagent |  | concentration for aPTT prolongation | 530 nM |
| C[C@H]1C[C@H]2CSC(N)=N[C@@]2(c2nc(NC(=O)c3ccc(OC(F)F)cn3)cs2)CO1 | item: Aβx-40 | healthy adults, plasma | 15 mg once daily, day 4 | relative to: placebo | percent change from baseline | -50.4% |
| CN(C(=O)n1cnc(-c2ccc[n+]([O-])c2)c1)C1CCCCC1 |  | mice, brain | oral, 3 mg/kg, 4 h |  | anandamide level | 92 ± 5 pmol/g |
| CC(=O)Oc1cc2c(s1)CCN(C(C(=O)C1CC1)c1ccccc1F)C2 (stereo not drawn) | light transmittance aggregometry | human patients, platelet-rich plasma | dose not given, 30 min, with: ADP 20 µM | relative to: patients | patients with IPA above 90% | 0% |
| N#Cc1ccn2c(-c3ccncc3)c(-c3ccc(F)cc3)nc2c1 | kinase binding, competitor, MIB/MS competition, item: KIN3 | Candida albicans cell lysate | 100 nM | relative to: DMSO | log2 fold change | -0.243 |
| CCOC(=O)c1cc(Cl)cc(NC(=O)c2sc(Cl)cc2S(=O)(=O)N(C)c2ccc(OCC)c(OC)c2)c1 |  | mice, female, C57BL/6, wild-type, liver | oral gavage, dose not given, 7 days |  | Abca1 mRNA level | increased |
| N#Cc1ccc2c(-c3ccncc3)c(-c3ccc(F)cc3)nn2c1 | kinase binding, competitor, MIB/MS competition, item: HSL1 | Candida albicans cell lysate | 1 µM | relative to: DMSO | log2 fold change | 0.0853 |
| Cc1cc(C)c(CNC(=O)c2cc(Cl)c3c(c2C)O[C@@](C)([C@H]2CC[C@H](N(C)C)CC2)O3)c(=O)[nH]1 | IWG 2007 criteria | human, relapsed/refractory B-cell NHL | dose not given |  | best overall response CR | 11% |
| COc1cc(/C=C/C(=O)CC(=O)/C=C/c2ccc(O)c(OC)c2)ccc1O |  | high-fat diet hyperlipidaemic rat | oral, 200 mg/kg daily, 4 weeks |  | plasma TC | 4.04 ± 0.42 mmol/L |
| COC[C@@H](c1ccc(C(F)(F)F)cc1)N1CCN(C2(C)CCN(C(=O)c3c(C)ncnc3C)CC2)C[C@@H]1C |  | HIV-1 patients, plasma | 10 mg, week 2 | relative to: baseline | change in HIV-1 RNA | -1.3 log10 copies/mL |
| CC[C@H](C)[C@H](NC(=O)[C@H](C)NC(=O)CNC(=O)[C@H](Cc1ccccc1)NC(=O)[C@H](CC(N)=O)NC(=O)[C@H](CC(N)=O)NC(=O)[C@H](CO)NC(=O)[C@H](CO)NC(=O)[C@H](Cc1c[nH]cn1)NC(=O)[C@@H](NC(=O)[C@H](CC(C)C)NC(=O)[C@H](Cc1ccccc1)NC(=O)[C@H](CC(N)=O)NC(=O)[C@H](C)NC(=O)[C@H](CC(C)C)NC(=O)[C@H](CCCNC(=N)N)NC(=O)[C@H](CCC(N)=O)NC(=O)[C@@H](NC(=O)[C@H](C)NC(=O)[C@@H]1CSSC[C@H](NC(=O)[C@@H](N)CCCCN)C(=O)N[C@@H](CC(N)=O)C(=O)N[C@@H]([C@@H](C)O)C(=O)N[C@@H](C)C(=O)N[C@@H]([C@@H](C)O)C(=O)N1)[C@@H](C)O)C(C)C)C(=O)N[C@@H](CC(C)C)C(=O)N[C@@H](CO)C(=O)N[C@@H](CO)C(=O)N[C@H](C(=O)N[C@@H](CC(N)=O)C(=O)N[C@H](C(=O)NCC(=O)N[C@@H](CO)C(=O)N[C@@H](CC(N)=O)C(=O)N[C@H](C(=O)N[C@@H](Cc1ccc(O)cc1)C(N)=O)[C@@H](C)O)C(C)C)[C@@H](C)O |  | isolated mouse islets | 10 µM, 24 h, with: 1.6 mM glucose (low) | relative to: control | insulin secretion | ~16.4% |
| Cc1n[nH]c2ccc(-c3cc(OC[C@@H](N)Cc4ccccc4)cnc3-c3ccoc3)cc12 | kinase binding, competitor, MIB/MS competition, item: HSL1 | Candida albicans cell lysate | 10 µM | relative to: DMSO | log2 fold change | -0.67 |
| CC#Cc1cncc(-c2ccc3c(c2)[C@@]2(N=C(C)C(N)=N2)[C@]2(CC[C@H](OC)CC2)C3)c1 | item: Aβ40 | Dunkin-Hartley guinea pigs, CSF | oral, dose not given, 8 h |  | maximum reduction | 88% |
| C[C@]12CC[C@@H]3c4ccc(O)cc4CC[C@H]3[C@@H]1CC[C@@H]2O | RT-qPCR, item: CO | Arabidopsis thaliana ING1:FLAG seedlings | 20 µM, 6 h after treatment, sampled at ZT12, replicate rep2, unit not given | relative to: TUB2 | mRNA level | 0.0917 |
| CCCCCN1C[C@H](O)[C@@H](O)[C@H](O)[C@@H]1CO |  | mouse Hexb-/-, liver | 300 mg/kg/day | relative to: untreated Hexb-/- mice | number of increased sphingolipids | 0 |
| CN[C@@H]1COc2c(S(=O)(=O)NC(=O)Nc3c4c(cc5c3CCC5)CCC4)cnn2C1 | item: IL-18 | human participants, whole blood ex vivo | 450 mg single dose, 1 h, IL-18, circulating, adjusted for, with: LPS/ATP | relative to: baseline | inhibition | 94% |
| OC(CCN1CCCCC1)(c1ccccc1)C1CC2C=CC1C2 (stereo not drawn) | resting-state EEG | healthy elderly humans | oral, 2 mg, eyes open, LS mean | relative to: baseline | change in EEG Beta2-power Pz-O1 | 6.9% |
| Cc1oncc1C(=O)Nc1ccc(C(F)(F)F)cc1 | item: dihydroorotate | female CD-1 mice, blood | oral, 30 mg/kg daily, 8 h after dose 10 |  | DHO concentration | 47.5 ± 20.4 µM |
| NC(=O)c1cnc2[nH]ccc2c1N[C@@H]1[C@@H]2CC3C[C@H]1C[C@@](O)(C3)C2 | flow cytometry | Japanese healthy men, blood | oral, 10 mg twice daily, 72 h after day 7 dose | relative to: baseline | regulatory T-cell change | -1.27% |

A few entries again:
| Compound | test | test system | setting | scale | measurement | result |
| --- | --- | --- | --- | --- | --- | --- |
| CCO[C@H]1CCN(Cc2c(OC)cc(C)c3[nH]ccc23)[C@H](c2ccc(C(=O)O)cc2)C1 |  | PNH patients, blood | oral, 25 mg then 100 mg, week 8, mean absolute change | relative to: baseline | PNH RBC clone size | 43.9% |
| Cc1oncc1C(=O)Nc1ccc(C(F)(F)F)cc1 | item: dihydroorotate | female CD-1 mice, blood | oral, 30 mg/kg daily, 8 h after dose 10 |  | DHO concentration | 47.5 ± 20.4 µM |
| CC#Cc1cncc(-c2ccc3c(c2)[C@@]2(N=C(C)C(N)=N2)[C@]2(CC[C@H](OC)CC2)C3)c1 | item: Aβ40 | Dunkin-Hartley guinea pigs, CSF | oral, dose not given, 8 h |  | maximum reduction | 88% |
